Results collected from several papers.
Each line is one published result; not all experiments were run side by side. ± gives the spread as reported.
Cell line: MCF7

| Compound | observed | action | method | refers to | time | notes | IC50 [µM] |
| --- | --- | --- | --- | --- | --- | --- | --- |
| Clc1ccnc2c1ccc1c(Cl)ccnc12.[Co+2].[O-]c1c(Br)cc(Br)c2cccnc12.[O-]c1c(Br)cc(Br)c2cccnc12 | cell growth or viability | – | MTT | – | 48 h | – | 20.1 |
| O=C(c1ccccc1Cl)N1CCN(CC(OCc2ccc3ccccc3c2)c2ccc(Cl)cc2Cl)CC1 (centres unmarked) | cell growth or viability | – | MTT | – | 24 h | – | > 50 |
| Cc1c(COc2cc(OCc3cccc(C#N)c3)c(CN3CCCC[C@H]3C(=O)O)cc2Cl)cccc1-c1cccc(OCCCCCC(=O)NO)c1 | cell growth or viability | – | CCK-8 | – | 48 h | – | 16.1 |
| NC(=O)c1ccc(-c2ccccc2Cl)c2c3c([nH]c12)CC[C@@H](N)C3 | cell growth or viability | – | – | – | – | – | 0.0179 |
| CC(C)=CC1OC(C)(C)C2C=C3C(=O)C(Cl)=CC(O)C3C3C(O)C4OC4C(=O)C132 (centres unmarked) | cell growth or viability | – | MTS | – | – | – | > 20 |
| Clc1ccc(C(Cn2ccnc2)OCc2ccc3ccccc3c2)c(Cl)c1 (centres unmarked) | cell growth or viability | – | MTT | – | 24 h | – | 48.1 |
| C[C@]12CC[C@@H]3c4ccc(OS(=O)(=O)Oc5ccc6ccc(=O)[nH]c6c5)cc4CC[C@H]3[C@@H]1CCC2=O | – | – | – | – | 72 h | – | 5 |
| COC(=O)N1c2ccc3c(nc(Cc4ccccc4)n3[C@@H]3CCC[C@@H](C(=O)O)C3)c2CC[C@@H]1C | cell growth or viability | – | ATP luminescence | – | 10 days | – | 1.91 |
| CCOC(=O)/C=C1\S/C(=N\N=C\c2cccc3cc4ccccc4nc23)N(c2ccc(OC)cc2)C1=O | cell growth or viability | – | MTT | – | 48 h | – | > 50 |
| Clc1ccc(C(Cn2cncn2)OCc2ccc3ccccc3c2)c(Cl)c1 (centres unmarked) | cell growth or viability | – | MTT | – | 24 h | – | 42 |
| O=C1/C(=N\c2ccc(Cl)cc2Br)c2ccccc2N1C(=O)c1ccccc1 | cell growth or viability | – | MTT | – | 48 h | – | > 100 |
| Cc1ccnc(-c2cc(C)ccn2)c1.[Co+2].[O-]c1c(I)cc(I)c2cccnc12.[O-]c1c(I)cc(I)c2cccnc12 | cell growth or viability | – | MTT | – | 48 h | – | 33 |
| Cc1ccc(CN2C3(NC(c4ccc(C)cc4)C24C(=O)Nc2ccccc24)C(=O)Nc2ccccc23)cc1 (centres unmarked) | cell growth or viability | – | MTT | – | 48 h | – | 60.2 |
| CCC(=CCc1c(O)cc2c(c1O)C(=O)CC(c1ccccc1O)O2)CC (centres unmarked) | cell growth or viability | – | MTT | – | 48 h | – | 70.5 |
| NC(=S)NN=Cc1ccc([N+](=O)[O-])o1 | cell growth or viability | – | resazurin | – | – | – | 30.8 |
| CC(C)(C)OC(=O)N1CCN(CC(OCc2ccc(Cl)cc2)c2ccc(Cl)cc2Cl)CC1 (centres unmarked) | cell growth or viability | – | MTT | – | 24 h | – | 26.3 |
| Cc1ccc2c(Br)cc(Br)c([O-])c2n1.Cc1ccc2c(Br)cc(Br)c([O-])c2n1.[Co+2].c1ccc(-c2ccccn2)nc1 | cell growth or viability | – | MTT | – | 48 h | – | 12 |
| CCC(=CCc1c(O)cc2c(c1O)C(=O)CC(c1cccc(O)c1)O2)CC (centres unmarked) | cell growth or viability | – | MTT | – | 48 h | – | 32.6 |
| Cc1c(COc2cc(OCc3cccc(C#N)c3)c(CNCCO)cc2Cl)cccc1-c1cccc(OCCCCCCC(=O)NO)c1 | cell growth or viability | – | CCK-8 | – | 48 h | – | 15.7 |
| COc1ccc(CNC[C@@](O)(COCc2ccccc2)[C@@H]2CC[C@@H](C)C[C@H]2OCc2ccccc2)cc1 | cell growth or viability | – | MTT | – | 72 h | – | 2.12 |
| Cc1nc(Nc2ccc3c(c2)/C(=C/c2c[nH]c4ccccc24)C(=O)N3)c2ccccc2n1 | cell growth or viability | – | MTT | – | – | – | 0.44 |
| CN(C)c1ccc(/C=C/c2cc(/C=C3\Sc4ccccc4N3CCCN3CCCC3)c3ccccc3[n+]2C)cc1 | cell growth or viability | – | MTT | – | 36 h | – | 4.35 |
| CC(=O)[O][Pd][c]1cc(Cl)ccc1N1N=C(C)C(C)(C)C1=O.CC(=O)[O][Pd][c]1cc(Cl)ccc1N1N=C(C)C(C)(C)C1=O | cell growth or viability | – | MTT | – | – | – | > 100 |
| CC(C)c1ccc(N(C)c2ccc3c(c2)OCC[C@H]3CNc2cnccc2C(=O)O)cc1 | cell growth or viability | – | ATP luminescence | – | 7 days | – | 0.435 |

| Compound | observed | action | method | refers to | time | notes | IC50 [µM] |
| --- | --- | --- | --- | --- | --- | --- | --- |
| COc1ccccc1/C=C1\C(=O)N(C)c2ccc(N(C)c3nc(C)nc4ccccc34)cc21 | cell growth or viability | – | MTT | – | – | – | 1.02 |
| O=[N+]([O-])c1ccc(C=NNC(Nc2ccccc2)=[S+][Au-][Cl])o1 | cell growth or viability | – | resazurin | – | – | – | 57.1 |
| O=C1/C(=N\c2cccc(Cl)c2)c2ccccc2N1Cc1ccccc1 | cell growth or viability | – | MTT | – | 48 h | – | 7.45 |
| Cc1ccc2c(Cl)cc(Cl)c([O-])c2n1.Cc1ccc2c(Cl)cc(Cl)c([O-])c2n1.Clc1ccnc2c1ccc1c(Cl)ccnc12.[Co+2] | cell growth or viability | – | MTT | – | 48 h | – | 6.18 |
| Nc1ncc(-c2nc(N3CCOCC3)nc(N3CCN(C(=O)CCC(=O)NCCCCCCCCCCCCNc4cccc5c4C(=O)N(C4CCC(=O)NC4=O)C5=O)CC3)n2)c(C(F)F)n1 (centres unmarked) | – | inhibitor | In-Cell Western | Akt pSer473 | 2 h | – | 0.029 |
| CCOC(=O)/C=C1\S/C(=N\N=C\c2cccc3cc4ccccc4nc23)N(c2cccc(OC)c2)C1=O | cell growth or viability | – | MTT | – | 48 h | – | > 50 |
| Cc1c(COc2cc(OCc3cccc(C#N)c3)c(CNC(C)(CO)CO)cc2Cl)cccc1-c1cccc(OCCCCCCC(=O)NO)c1 | cell growth or viability | – | CCK-8 | – | 48 h | – | > 20 |
| O=C1C(Nc2ccc(Cl)cc2)c2ccccc2N1Cc1ccccc1 (centres unmarked) | cell growth or viability | – | MTT | – | 48 h | – | 39.8 |
| O=C(c1ccc(Cl)cc1Cl)N1CCN(CC(OCc2ccc3ccccc3c2)c2ccc(Cl)cc2Cl)CC1 (centres unmarked) | cell growth or viability | – | MTT | – | 24 h | – | 44.5 |
| Nc1ncc(-c2nc(N3CCOCC3)nc(N3CCN(C(=O)CCC(=O)NCCCCCCNc4cccc5c4C(=O)N(C4CCC(=O)NC4=O)C5=O)CC3)n2)c(C(F)F)n1 (centres unmarked) | – | inhibitor | In-Cell Western | Akt pSer473 | 2 h | – | 0.0673 |
| CC(C)(C)OC(=O)N1CCN(CC(OCc2ccc(Br)cc2)c2ccc(Cl)cc2Cl)CC1 (centres unmarked) | cell growth or viability | – | MTT | – | 24 h | – | 24.1 |
| O=C1CS/C(=N\N=C\c2cccc3cc4ccccc4nc23)N1c1ccccc1 | cell growth or viability | – | MTT | – | 48 h | – | > 50 |
| CC(=O)N[C@@H](CCCNC(=N)N)C(=O)N[C@@H](Cc1c[nH]c2ccccc12)C(=O)N[C@@H](CCCNC(=N)N)C(=O)N[C@@H](Cc1c[nH]c2ccccc12)C(=O)N[C@@H](CCCNC(=N)N)C(=O)N[C@@H](Cc1c[nH]c2ccccc12)C(N)=O | cell viability | – | – | – | 48 h | dark | > 100 |
| Nc1ncc(-c2nc(N3CCOCC3)nc(N3CCN(C(=O)CCC(=O)NCCCCCCCCNc4cccc5c4C(=O)N(C4CCC(=O)NC4=O)C5=O)CC3)n2)c(C(F)F)n1 (centres unmarked) | – | inhibitor | In-Cell Western | Akt pSer473 | 2 h | – | 0.0323 |
| Clc1ccc(COC(Cn2cncn2)c2ccc(Cl)cc2Cl)cc1 (centres unmarked) | cell growth or viability | – | MTT | – | 24 h | – | 45.6 |
| C[C@@H]1CC[C@@H]([C@](O)(CNCc2ccc(F)cc2)COCc2ccccc2)[C@H](OCc2ccccc2)C1 | cell growth or viability | – | MTT | – | 72 h | – | 10.4 |
| Cc1ccc2c(Cl)cc(Cl)c([O-])c2n1.Cc1ccc2c(Cl)cc(Cl)c([O-])c2n1.[Co+2].c1ccc(-c2ccnc3c2ccc2c(-c4ccccc4)ccnc23)cc1 | cell growth or viability | – | MTT | – | 48 h | – | 7.95 |
| CN1CCC(N[C@H]2CCc3[nH]c4c(C(N)=O)ccc(-c5ccccc5Cl)c4c3C2)CC1 | cell proliferation | – | – | – | 96 h | – | 0.261 |
| CCC(=CCc1c(O)cc2c(c1O)C(=O)CC(c1ccc(O)cc1)O2)CC (centres unmarked) | cytotoxicity | – | MTT | – | 48 h | as reported | 20.6 ± 3.9 |
| CCCN1C(=O)CS/C1=N\N=C\c1cccc2cc3ccccc3nc12 | cell growth or viability | – | MTT | – | 48 h | – | > 50 |
| C[C@H]1[C@H](C)CC[C@]2(C)CC[C@]3(C)C(=CC(=O)[C@@H]4[C@@]5(C)CC[C@@H](O)[C@](C)(C(=O)O)[C@@H]5CC[C@]43C)[C@H]12 | cell growth or viability | – | MTT | – | 24 h | – | 122 |
| C[C@@H]1CC[C@@H]([C@@](O)(CNCc2ccccc2F)COCc2ccccc2)[C@H](OCc2ccccc2)C1 | cell growth or viability | – | MTT | – | 72 h | – | 5.07 |
| COc1ccc(C2CC(=O)c3c(cc(O)c(CC=C(C)C)c3O)O2)cc1 (centres unmarked) | cytotoxicity | – | MTT | – | 48 h | sigmoidal fit | 109 |

Excerpt of the above:
| Compound | observed | action | method | refers to | time | notes | IC50 [µM] |
| --- | --- | --- | --- | --- | --- | --- | --- |
| Clc1ccc(C(Cn2cncn2)OCc2ccc3ccccc3c2)c(Cl)c1 (centres unmarked) | cell growth or viability | – | MTT | – | 24 h | – | 42 |
| O=C1/C(=N\c2ccc(Cl)cc2Br)c2ccccc2N1C(=O)c1ccccc1 | cell growth or viability | – | MTT | – | 48 h | – | > 100 |
| Cc1ccnc(-c2cc(C)ccn2)c1.[Co+2].[O-]c1c(I)cc(I)c2cccnc12.[O-]c1c(I)cc(I)c2cccnc12 | cell growth or viability | – | MTT | – | 48 h | – | 33 |
| Cc1ccc(CN2C3(NC(c4ccc(C)cc4)C24C(=O)Nc2ccccc24)C(=O)Nc2ccccc23)cc1 (centres unmarked) | cell growth or viability | – | MTT | – | 48 h | – | 60.2 |
| CCC(=CCc1c(O)cc2c(c1O)C(=O)CC(c1ccccc1O)O2)CC (centres unmarked) | cell growth or viability | – | MTT | – | 48 h | – | 70.5 |
